Results from different studies.
Each numbered part is a random draw from the data of one study; scales do not carry over between parts.
UniProt P16591, sequence (whole entry, looked up): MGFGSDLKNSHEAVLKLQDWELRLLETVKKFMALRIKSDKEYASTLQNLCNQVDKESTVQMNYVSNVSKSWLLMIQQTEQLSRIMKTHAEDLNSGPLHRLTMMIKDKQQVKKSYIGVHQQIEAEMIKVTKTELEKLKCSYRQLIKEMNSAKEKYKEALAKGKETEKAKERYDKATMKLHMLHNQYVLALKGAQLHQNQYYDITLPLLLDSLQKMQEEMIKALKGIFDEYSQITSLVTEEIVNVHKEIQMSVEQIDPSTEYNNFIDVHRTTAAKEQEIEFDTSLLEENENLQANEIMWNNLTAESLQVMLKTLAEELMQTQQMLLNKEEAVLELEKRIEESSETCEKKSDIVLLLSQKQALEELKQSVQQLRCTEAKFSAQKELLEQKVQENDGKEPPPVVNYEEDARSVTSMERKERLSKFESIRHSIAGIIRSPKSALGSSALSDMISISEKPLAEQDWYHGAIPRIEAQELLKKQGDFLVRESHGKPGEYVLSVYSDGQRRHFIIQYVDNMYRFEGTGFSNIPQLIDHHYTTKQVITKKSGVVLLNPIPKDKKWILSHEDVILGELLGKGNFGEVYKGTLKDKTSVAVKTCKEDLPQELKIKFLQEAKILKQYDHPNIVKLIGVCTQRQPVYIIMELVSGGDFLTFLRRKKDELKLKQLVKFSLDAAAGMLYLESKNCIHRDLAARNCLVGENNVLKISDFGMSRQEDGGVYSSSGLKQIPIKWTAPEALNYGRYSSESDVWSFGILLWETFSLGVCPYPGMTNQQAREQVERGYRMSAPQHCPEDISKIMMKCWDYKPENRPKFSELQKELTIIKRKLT
UniProt O00506, sequence (whole entry, looked up): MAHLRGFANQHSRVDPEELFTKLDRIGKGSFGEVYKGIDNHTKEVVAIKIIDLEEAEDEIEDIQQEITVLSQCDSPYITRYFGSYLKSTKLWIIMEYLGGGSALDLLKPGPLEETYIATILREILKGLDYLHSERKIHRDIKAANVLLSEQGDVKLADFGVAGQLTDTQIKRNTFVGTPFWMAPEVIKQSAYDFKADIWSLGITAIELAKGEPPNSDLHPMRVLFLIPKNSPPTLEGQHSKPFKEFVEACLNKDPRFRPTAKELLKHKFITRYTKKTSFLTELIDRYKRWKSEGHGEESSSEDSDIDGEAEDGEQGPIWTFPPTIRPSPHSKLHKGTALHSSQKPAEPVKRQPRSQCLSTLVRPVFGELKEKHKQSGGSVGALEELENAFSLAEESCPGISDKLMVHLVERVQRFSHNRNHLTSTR
UniProt Q8N5S9, sequence (whole entry, looked up): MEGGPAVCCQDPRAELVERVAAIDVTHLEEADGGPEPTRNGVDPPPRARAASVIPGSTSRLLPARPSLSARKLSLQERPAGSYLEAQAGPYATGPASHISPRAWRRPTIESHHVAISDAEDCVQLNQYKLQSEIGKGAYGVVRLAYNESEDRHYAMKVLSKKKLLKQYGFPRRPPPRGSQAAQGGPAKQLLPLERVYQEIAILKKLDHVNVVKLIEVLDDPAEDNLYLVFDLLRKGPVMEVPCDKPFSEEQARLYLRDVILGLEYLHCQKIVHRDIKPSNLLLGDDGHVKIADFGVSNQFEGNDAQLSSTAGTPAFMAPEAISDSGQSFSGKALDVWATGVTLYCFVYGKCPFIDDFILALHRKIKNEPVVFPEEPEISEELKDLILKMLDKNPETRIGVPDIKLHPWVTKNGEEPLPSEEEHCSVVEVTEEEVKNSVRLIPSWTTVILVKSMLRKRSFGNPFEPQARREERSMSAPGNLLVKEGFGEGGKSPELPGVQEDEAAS
UniProt O75385, sequence (whole entry, looked up): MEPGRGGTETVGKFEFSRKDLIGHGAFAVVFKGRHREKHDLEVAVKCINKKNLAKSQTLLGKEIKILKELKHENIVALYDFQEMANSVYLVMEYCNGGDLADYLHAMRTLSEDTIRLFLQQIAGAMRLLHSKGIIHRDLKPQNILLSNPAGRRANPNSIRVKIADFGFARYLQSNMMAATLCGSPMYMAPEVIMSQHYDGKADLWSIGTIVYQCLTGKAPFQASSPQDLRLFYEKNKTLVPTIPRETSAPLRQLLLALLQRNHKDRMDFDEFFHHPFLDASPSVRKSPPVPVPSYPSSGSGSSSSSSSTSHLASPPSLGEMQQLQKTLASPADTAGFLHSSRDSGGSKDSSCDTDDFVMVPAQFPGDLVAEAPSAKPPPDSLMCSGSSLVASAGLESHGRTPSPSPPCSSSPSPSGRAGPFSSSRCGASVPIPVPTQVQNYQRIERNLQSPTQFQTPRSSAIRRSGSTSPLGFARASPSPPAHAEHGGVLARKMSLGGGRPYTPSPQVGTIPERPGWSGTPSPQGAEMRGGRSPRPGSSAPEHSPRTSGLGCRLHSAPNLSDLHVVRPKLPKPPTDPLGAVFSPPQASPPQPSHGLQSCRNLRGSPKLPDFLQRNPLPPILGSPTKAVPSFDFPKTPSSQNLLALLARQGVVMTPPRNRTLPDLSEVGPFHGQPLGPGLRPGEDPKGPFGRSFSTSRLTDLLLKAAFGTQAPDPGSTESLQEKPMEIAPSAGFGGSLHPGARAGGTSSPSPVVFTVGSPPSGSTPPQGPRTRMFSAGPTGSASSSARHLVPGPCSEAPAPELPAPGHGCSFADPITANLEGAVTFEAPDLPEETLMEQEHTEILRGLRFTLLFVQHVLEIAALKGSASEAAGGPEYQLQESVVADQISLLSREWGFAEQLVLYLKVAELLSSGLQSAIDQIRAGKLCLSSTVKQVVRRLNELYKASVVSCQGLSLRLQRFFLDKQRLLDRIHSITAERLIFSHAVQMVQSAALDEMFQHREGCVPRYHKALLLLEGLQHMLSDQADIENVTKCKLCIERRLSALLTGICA
UniProt Q9Y6E0, sequence (whole entry, looked up): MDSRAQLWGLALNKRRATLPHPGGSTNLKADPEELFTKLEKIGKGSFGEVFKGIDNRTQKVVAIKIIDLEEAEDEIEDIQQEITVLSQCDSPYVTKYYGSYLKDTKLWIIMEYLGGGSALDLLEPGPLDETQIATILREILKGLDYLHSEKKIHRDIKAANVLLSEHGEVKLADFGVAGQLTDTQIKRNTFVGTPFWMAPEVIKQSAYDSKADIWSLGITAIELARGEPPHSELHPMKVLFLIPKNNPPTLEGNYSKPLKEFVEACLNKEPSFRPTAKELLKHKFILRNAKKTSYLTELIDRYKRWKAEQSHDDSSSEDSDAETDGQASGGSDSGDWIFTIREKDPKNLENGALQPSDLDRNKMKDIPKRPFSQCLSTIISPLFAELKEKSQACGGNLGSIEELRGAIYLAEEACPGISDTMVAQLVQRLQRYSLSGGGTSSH
UniProt O75582, sequence (whole entry, looked up): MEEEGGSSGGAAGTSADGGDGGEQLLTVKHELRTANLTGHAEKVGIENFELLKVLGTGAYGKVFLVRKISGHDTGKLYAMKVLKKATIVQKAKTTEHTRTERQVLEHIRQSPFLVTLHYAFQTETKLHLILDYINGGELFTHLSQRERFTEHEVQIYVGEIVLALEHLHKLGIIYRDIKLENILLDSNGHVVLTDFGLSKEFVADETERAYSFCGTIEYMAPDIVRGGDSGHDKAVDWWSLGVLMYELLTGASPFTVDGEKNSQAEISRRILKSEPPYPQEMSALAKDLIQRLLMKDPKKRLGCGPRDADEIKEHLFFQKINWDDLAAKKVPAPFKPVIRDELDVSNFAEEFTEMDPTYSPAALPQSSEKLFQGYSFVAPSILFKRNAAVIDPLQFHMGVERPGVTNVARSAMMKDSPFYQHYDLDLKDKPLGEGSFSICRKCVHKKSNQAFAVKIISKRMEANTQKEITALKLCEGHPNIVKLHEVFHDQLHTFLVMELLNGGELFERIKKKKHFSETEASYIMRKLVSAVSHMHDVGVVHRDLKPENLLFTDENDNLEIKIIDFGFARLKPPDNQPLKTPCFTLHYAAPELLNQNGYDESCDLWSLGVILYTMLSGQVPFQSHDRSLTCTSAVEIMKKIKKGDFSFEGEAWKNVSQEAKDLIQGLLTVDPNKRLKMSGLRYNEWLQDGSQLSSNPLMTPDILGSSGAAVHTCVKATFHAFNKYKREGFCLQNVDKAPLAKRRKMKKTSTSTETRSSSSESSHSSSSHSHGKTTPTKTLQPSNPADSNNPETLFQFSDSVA
UniProt P57059, sequence (whole entry, looked up): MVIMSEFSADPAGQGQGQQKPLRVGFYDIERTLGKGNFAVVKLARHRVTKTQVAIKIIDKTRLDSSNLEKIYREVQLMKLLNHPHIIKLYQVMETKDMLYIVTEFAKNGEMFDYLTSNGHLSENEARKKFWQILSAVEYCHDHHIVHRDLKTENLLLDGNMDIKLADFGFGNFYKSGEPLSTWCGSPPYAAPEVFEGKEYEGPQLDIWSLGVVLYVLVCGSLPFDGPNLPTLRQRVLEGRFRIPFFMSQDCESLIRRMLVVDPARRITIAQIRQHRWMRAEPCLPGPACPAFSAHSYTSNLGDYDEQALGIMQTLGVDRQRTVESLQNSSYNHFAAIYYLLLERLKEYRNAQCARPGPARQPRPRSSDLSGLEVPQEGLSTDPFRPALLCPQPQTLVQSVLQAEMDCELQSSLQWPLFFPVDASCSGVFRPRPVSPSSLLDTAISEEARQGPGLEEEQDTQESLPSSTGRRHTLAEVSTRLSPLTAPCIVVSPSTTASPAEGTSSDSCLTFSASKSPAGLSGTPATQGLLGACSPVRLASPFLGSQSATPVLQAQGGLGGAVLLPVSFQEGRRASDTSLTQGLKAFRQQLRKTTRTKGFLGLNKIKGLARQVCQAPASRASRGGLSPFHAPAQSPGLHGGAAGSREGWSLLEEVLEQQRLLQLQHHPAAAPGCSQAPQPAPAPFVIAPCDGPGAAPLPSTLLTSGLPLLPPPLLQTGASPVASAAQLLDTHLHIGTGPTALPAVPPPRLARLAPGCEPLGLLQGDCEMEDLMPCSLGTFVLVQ

Series 1
Target: PABPC1L2, full length, GST fusion (mouse, UniProt A0ABA7IW68)
Method: RNAcompete
Molecule type: RNA
Sample: in vitro
Tested at: 20 nM
Notes: 7-mer, probes averaged, single round
Baseline: mean of 7-mers
Direction: higher = stronger binding
Target sequence (chain): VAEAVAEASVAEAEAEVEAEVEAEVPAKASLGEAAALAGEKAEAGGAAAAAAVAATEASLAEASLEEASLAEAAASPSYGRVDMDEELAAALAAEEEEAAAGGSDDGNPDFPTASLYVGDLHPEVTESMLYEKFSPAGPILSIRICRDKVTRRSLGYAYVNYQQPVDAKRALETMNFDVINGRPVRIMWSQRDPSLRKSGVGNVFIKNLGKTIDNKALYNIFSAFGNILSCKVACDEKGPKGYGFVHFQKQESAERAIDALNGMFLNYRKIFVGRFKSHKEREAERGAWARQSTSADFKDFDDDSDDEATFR
| Sequence | 7-mer Z-score |
| --- | --- |
| AGCUACU | -0.222 |
| UACACGG | 0.274 |
| CACCCCG | -0.441 |
| GUAGGCC | -0.0301 |
| CCCGACC | -0.237 |
| UUGUGAA | 0.0352 |
| CCAUGUG | -0.219 |
| CUUGAAU | -0.197 |

Series 2
Compound: Cn1cc(Cl)c2c(Oc3c(F)cc(Nc4cc(Cl)nc(N)n4)cc3F)ccnc21
Tested at: 0.1 µM
| target | effect on | method | remaining binding |
| --- | --- | --- | --- |
| STK25 (Homo sapiens, UniProt O00506) | cell-free assay | competition with immobilised ligand | 100% |
| PRKCI (Homo sapiens, UniProt P41743) | cell-free assay | competition with immobilised ligand | 100% |
| ULK1 (Homo sapiens, UniProt O75385) | cell-free assay | competition with immobilised ligand | 93% |
| Ribosomal protein S6 kinase alpha-5, C-terminal kinase domain (RPS6KA5, Homo sapiens, UniProt O75582) | cell-free assay | competition with immobilised ligand | 100% |
| CAMKK1 (Homo sapiens, UniProt Q8N5S9) | cell-free assay | competition with immobilised ligand | 100% |
| FER (Homo sapiens, UniProt P16591) | cell-free assay | competition with immobilised ligand | 100% |
| SIK1 (Homo sapiens, UniProt P57059) |  | competition binding | 100% |
| Non-receptor tyrosine-protein kinase TYK2, JH2 (TYK2, Homo sapiens, UniProt P29597) | cell-free assay | competition with immobilised ligand | 85% |
| MAP4K2 (Homo sapiens, UniProt Q12851) | cell-free assay | competition with immobilised ligand | 81% |
| CDK18 (Homo sapiens, UniProt Q07002) | cell-free assay | competition with immobilised ligand | 100% |
| ULK2 (Homo sapiens, UniProt Q8IYT8) | cell-free assay | competition with immobilised ligand | 100% |
| PRKCQ (Homo sapiens, UniProt Q04759) | cell-free assay | competition with immobilised ligand | 99% |
| DYRK1B (Homo sapiens, UniProt Q9Y463) | cell-free assay | competition with immobilised ligand | 82% |
| PNCK (Homo sapiens, UniProt Q6P2M8) | cell-free assay | competition with immobilised ligand | 90% |
| STK24 (Homo sapiens, UniProt Q9Y6E0) | cell-free assay | competition with immobilised ligand | 100% |
| ERBB3 (Homo sapiens, UniProt P21860) | cell-free assay | competition with immobilised ligand | 75% |
| FLT3 (Homo sapiens, UniProt P36888, D835V) | cell-free assay | competition with immobilised ligand | 91% |

Series 3
Target: Serine/threonine-protein kinase Sgk3 (SGK3, Homo sapiens, UniProt Q96BR1)
Effect on: enzyme activity
Action: inhibitor
Tested at: 0.5 µM
Baseline: control
Residues (Q96BR1 1-496): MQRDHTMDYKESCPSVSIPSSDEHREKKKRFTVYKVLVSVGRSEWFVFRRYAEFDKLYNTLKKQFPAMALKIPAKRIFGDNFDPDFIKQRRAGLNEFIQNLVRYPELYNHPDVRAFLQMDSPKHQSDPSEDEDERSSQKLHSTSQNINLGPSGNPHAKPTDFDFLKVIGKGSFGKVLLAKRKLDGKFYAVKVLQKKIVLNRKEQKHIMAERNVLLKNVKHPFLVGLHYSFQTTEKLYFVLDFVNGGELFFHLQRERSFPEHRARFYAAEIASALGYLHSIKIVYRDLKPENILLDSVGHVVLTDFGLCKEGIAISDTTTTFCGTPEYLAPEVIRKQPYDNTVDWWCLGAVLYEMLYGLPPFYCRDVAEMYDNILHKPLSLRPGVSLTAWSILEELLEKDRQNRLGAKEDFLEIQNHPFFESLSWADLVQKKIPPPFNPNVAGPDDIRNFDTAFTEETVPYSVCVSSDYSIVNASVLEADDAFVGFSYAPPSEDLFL
| Structure (SMILES) | remaining activity [%] |
| --- | --- |
| O=C(CCCc1ccc(-c2ccccc2F)cc1)Nc1ccc(O)cc1 | 106 |
| Cc1cccc(-c2[nH]c(C(C)(C)C)nc2-c2ccc3c(c2)OCO3)n1 | 98 |
| Cc1ccc(NC(=O)c2ccc(CN3CCN(C)CC3)cc2)cc1Nc1nc(-c2cccnc2)cs1 | 95.6 |
| CNC(=O)c1cc(Oc2ccc(NC(=O)Nc3ccc(Cl)c(C(F)(F)F)c3)cc2)ccn1 | 101 |
| OCC(O)CCON=C1C(c2c(O)[nH]c3ccccc23)=Nc2ccccc21 (stereo not drawn) | 100 |
| Nc1ccc2ncnc(NCCc3ccc(Oc4ccccc4)cc3)c2c1 | 106 |
| COc1cc2ncnc(Nc3ccc(F)c(Cl)c3)c2cc1OCCCN1CCOCC1 | 98.3 |
| N#CC(C#N)=C(N)/C(C#N)=C/c1ccc(O)cc1 | 103 |
| O=C1NC(=O)C(c2cn(CCCO)c3ncccc23)=C1c1cnccn1 | 124 |
| COc1ccc(OC)c2c(=S)c3ccccc3[nH]c12 | 90.7 |
| COc1ccc(CNC(=O)Nc2ncc([N+](=O)[O-])s2)cc1 | 96.9 |
| Nc1[nH]nc2nc3ccccc3nc12 | 96.6 |
| CCOC(=O)c1c(C)[nH]c(/C=C2\C(=O)Nc3ccccc32)c1C | 88.1 |
| COc1cc2nccc(Oc3ccc(NC(=S)NC(=O)c4ccccc4C)cc3)c2cc1OC | 98.3 |
| C#Cc1cccc(Nc2ncnc3cc(OCCOC)c(OCCOC)cc23)c1 | 100 |
| O=c1c2ccccc2[nH]c(=S)n1CCN1CCC(=C(c2ccc(F)cc2)c2ccc(F)cc2)CC1 | 114 |

Mixed results
Method: cross-linking MS
| Molecule | partner | sample | notes | added | quantity | result |
| --- | --- | --- | --- | --- | --- | --- |
| TM7SF2 (Homo sapiens, UniProt O76062) | SWAP70 (Homo sapiens, UniProt Q9UH65) | cell fractions |  | DMTMM | cross-linked residues | K316 to D86 |
| NOL6 (Homo sapiens, UniProt Q9H6R4) | RRP7A (Homo sapiens, UniProt Q9Y3A4) |  | hits only |  | interaction screen | cross-linked |
| CCT7 (Homo sapiens, UniProt Q99832) | CGN (Homo sapiens, UniProt Q9P2M7) | cell fractions |  | DSSO | cross-linked residues | K320 to K632 |
| CALD1 (Homo sapiens, UniProt Q05682) | DHX29 (Homo sapiens, UniProt Q7Z478) | cell fractions |  | DSSO | cross-linked residues | K781 to K401 |

For quick reference, copied from above (series 2):
| target | effect on | method | remaining binding |
| --- | --- | --- | --- |
| STK25 (Homo sapiens, UniProt O00506) | cell-free assay | competition with immobilised ligand | 100% |
| CDK18 (Homo sapiens, UniProt Q07002) | cell-free assay | competition with immobilised ligand | 100% |
| MAP4K2 (Homo sapiens, UniProt Q12851) | cell-free assay | competition with immobilised ligand | 81% |
| FER (Homo sapiens, UniProt P16591) | cell-free assay | competition with immobilised ligand | 100% |
